Published values gathered from unrelated publications.
Each line is one published result; not all experiments were run side by side.
MTNR1B: Melatonin receptor type 1B (MTNR1B, Homo sapiens, UniProt P49286)
UniProt P49286, sequence (whole entry, looked up): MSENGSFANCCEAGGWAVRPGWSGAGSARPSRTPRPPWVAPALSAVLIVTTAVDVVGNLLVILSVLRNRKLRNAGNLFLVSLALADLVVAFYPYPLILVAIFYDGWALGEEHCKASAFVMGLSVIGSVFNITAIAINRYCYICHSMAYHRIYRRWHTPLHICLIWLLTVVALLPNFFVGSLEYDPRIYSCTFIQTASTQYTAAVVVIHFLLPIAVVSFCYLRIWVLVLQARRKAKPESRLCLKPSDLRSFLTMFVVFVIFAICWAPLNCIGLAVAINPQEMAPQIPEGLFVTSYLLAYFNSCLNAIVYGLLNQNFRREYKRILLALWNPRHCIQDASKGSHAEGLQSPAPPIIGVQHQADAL
UniProt O43781, sequence (whole entry, looked up): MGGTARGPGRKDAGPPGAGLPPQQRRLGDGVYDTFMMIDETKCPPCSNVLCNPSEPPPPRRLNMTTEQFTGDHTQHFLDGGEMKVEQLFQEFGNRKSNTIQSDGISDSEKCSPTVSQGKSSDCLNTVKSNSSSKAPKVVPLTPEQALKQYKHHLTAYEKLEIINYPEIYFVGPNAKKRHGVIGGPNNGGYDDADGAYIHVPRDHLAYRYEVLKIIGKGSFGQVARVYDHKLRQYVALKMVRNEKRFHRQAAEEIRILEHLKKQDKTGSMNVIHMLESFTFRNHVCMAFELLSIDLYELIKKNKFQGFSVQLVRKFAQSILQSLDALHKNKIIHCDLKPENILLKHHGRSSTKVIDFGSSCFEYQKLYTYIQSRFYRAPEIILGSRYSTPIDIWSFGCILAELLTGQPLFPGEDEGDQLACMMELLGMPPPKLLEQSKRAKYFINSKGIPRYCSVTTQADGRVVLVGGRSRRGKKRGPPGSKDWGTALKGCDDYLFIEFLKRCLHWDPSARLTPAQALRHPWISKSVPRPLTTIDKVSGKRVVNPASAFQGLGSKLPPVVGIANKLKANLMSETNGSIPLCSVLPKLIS
UniProt Q9NYL2, sequence (whole entry, looked up): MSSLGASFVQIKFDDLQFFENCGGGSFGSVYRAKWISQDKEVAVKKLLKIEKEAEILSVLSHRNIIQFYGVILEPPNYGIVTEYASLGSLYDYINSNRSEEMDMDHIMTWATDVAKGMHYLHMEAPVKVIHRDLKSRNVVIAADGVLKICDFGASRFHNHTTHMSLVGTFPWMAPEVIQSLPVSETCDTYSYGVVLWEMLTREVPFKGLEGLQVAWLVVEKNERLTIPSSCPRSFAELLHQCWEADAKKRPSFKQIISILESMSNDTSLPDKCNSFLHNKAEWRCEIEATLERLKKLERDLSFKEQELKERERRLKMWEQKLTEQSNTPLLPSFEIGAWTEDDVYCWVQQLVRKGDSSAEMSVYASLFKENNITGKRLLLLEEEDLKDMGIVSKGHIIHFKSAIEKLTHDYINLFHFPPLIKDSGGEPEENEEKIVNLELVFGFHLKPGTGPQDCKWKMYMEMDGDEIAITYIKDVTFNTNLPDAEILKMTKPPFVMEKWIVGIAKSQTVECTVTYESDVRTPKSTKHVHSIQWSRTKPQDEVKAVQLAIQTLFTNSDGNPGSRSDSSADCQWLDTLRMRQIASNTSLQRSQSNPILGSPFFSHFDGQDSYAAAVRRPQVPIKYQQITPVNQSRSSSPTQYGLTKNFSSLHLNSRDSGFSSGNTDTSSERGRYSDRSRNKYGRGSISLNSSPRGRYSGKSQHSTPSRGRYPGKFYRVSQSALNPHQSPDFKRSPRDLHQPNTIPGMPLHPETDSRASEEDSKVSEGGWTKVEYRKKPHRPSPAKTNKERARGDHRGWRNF
UniProt O14757, sequence (whole entry, looked up): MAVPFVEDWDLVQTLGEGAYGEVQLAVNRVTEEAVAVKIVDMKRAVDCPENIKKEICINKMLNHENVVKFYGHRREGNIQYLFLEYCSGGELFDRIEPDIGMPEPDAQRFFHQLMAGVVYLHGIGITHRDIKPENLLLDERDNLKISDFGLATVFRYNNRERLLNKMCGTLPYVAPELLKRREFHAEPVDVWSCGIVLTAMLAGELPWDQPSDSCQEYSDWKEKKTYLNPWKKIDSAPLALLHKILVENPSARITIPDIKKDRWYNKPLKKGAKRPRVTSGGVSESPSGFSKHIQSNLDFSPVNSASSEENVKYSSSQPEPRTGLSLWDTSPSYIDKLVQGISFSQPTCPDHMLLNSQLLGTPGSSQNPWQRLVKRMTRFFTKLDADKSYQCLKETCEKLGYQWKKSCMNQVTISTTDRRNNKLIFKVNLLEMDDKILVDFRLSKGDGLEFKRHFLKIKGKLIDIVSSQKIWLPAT
UniProt Q16566, sequence (whole entry, looked up): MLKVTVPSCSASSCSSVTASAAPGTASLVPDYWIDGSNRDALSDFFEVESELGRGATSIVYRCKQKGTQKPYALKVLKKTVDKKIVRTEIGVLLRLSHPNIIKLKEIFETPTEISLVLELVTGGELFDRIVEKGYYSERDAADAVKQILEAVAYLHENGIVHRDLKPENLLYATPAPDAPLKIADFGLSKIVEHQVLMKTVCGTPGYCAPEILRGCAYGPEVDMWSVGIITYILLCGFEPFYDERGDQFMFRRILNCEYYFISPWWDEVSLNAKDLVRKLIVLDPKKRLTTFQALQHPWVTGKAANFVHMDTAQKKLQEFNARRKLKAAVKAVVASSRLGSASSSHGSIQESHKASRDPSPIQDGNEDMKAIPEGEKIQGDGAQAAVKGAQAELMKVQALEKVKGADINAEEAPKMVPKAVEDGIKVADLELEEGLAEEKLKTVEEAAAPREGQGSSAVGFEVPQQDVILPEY
UniProt Q56UN5, sequence (whole entry, looked up): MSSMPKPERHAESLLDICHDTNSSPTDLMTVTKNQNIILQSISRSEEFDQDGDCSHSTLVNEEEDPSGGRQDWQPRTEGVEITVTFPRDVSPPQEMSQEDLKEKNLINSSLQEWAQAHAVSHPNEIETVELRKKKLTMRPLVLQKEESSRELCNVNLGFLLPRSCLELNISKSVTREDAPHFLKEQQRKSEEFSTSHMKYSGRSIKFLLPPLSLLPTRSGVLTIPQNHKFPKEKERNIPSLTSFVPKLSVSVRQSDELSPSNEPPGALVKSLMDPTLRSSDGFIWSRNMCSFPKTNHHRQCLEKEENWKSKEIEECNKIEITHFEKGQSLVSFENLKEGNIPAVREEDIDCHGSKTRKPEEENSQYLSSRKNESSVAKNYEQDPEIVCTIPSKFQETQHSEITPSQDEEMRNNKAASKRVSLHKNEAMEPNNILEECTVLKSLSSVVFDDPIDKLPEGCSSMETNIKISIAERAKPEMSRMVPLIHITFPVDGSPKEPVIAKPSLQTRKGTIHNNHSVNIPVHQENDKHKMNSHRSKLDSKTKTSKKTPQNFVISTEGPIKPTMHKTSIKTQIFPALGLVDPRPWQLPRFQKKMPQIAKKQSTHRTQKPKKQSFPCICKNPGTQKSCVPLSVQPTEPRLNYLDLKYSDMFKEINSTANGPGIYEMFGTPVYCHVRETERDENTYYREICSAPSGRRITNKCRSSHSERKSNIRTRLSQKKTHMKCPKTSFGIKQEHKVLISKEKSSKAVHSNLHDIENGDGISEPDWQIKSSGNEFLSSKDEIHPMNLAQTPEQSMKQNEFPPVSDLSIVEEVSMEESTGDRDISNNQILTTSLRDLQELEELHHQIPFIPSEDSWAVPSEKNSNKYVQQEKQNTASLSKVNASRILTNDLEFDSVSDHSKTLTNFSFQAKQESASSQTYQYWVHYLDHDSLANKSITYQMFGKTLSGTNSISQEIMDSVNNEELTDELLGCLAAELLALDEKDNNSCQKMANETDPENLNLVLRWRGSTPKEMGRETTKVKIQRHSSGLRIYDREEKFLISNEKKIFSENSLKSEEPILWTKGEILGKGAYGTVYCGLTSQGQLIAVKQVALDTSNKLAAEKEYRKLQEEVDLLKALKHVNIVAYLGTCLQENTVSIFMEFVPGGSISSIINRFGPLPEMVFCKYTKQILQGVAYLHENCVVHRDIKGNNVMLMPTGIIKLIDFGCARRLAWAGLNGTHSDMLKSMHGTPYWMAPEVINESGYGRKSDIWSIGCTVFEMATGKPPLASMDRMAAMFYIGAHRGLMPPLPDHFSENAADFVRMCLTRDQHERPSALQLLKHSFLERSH
UniProt P27361, sequence (whole entry, looked up): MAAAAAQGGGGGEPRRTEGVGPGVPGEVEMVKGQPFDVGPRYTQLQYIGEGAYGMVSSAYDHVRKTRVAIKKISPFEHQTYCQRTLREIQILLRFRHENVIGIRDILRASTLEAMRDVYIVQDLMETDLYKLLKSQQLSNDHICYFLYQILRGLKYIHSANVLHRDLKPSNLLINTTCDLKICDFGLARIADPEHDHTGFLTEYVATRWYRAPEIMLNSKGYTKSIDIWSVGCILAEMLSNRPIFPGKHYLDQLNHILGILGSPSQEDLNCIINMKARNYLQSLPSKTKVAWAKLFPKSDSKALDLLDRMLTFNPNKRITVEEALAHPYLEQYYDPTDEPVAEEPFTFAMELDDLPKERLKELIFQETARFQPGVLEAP
UniProt P48039, sequence (whole entry, looked up): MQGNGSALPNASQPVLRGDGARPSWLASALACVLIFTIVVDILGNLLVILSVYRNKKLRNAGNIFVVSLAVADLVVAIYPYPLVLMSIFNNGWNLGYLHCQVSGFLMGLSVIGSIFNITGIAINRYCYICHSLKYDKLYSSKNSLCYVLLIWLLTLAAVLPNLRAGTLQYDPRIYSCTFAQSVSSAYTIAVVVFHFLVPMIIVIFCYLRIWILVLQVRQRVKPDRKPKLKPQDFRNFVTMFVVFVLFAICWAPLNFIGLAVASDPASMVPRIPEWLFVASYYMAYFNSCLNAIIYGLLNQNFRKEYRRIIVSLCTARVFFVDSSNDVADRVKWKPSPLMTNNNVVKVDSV
UniProt Q9SZU7, sequence (whole entry, unmodified, looked up): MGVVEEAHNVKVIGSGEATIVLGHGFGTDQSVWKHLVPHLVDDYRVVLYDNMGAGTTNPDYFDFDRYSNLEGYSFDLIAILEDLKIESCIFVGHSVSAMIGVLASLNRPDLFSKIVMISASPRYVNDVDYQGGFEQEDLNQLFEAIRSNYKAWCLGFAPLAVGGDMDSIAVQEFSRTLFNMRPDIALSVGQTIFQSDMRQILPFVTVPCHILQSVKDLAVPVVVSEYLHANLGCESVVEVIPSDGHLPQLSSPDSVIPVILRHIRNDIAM

Structure (SMILES)	target	test	setting	measurement	value
CNc1ncc2c(/C=C/C(=O)N3CCC(OC)CC3)nn(Cc3cccc(C(F)(F)F)c3)c2n1	LTK (Homo sapiens, UniProt P29376)	enzyme activity, inhibitor, radiometric	1 µM	remaining activity	97%
Cc1cc([C@@H](C)Nc2ccccc2C(=O)O)c2nc(N3CCC(F)(F)CC3)c(C#N)c(=O)n2c1	CHEK1 (Homo sapiens, UniProt O14757)	binding, competition with immobilised ligand	1 µM	remaining binding	93%
Nc1ncnc2occ(-c3ccc(NC(=O)Nc4cc(C(F)(F)F)ccc4F)cc3)c12	MAP3K19 (Homo sapiens, UniProt Q56UN5)	cell-free assay, inhibitor	20 µM	remaining signal	0.2%
C=CC(=O)N1CCC(COCC(=O)N2CCN(c3nc(-c4cnc(N)nc4C(F)F)nc(N4CCOC[C@@H]4C)n3)CC2)CC1	CAMK4 (Homo sapiens, UniProt Q16566)	binding, competition with immobilised ligand	1 µM	remaining binding	100%
FC(F)(F)Oc1cccc(-c2cnc3ccc(-c4ccncc4)nn23)c1	DYRK3 (Homo sapiens, UniProt O43781)	enzyme activity, inhibitor, radiometric	5 µM	activity vs control	34%
COc1cc(CNC(=O)c2ccncc2Cl)cc(Br)c1OC	Replicase polyprotein 1ab, papain-like protease (rep, Porcine epidemic diarrhea virus, UniProt P0C6Y4)	enzyme activity, inhibitor, FRET	10 µM	inhibition	3.07%
CC1CCCN1c1nccc(-c2cnn3ncccc23)n1 (stereo not drawn)	SIK1 (Homo sapiens, UniProt P57059)	binding	1 µM	remaining binding	100%
CCc1ccc2scc(CCNC(C)=O)c2c1	MTNR1B	GTPγS binding, agonist, radiometric	cell membranes	Emax	87%
CC[C@H](C)[C@H](NC(=O)[C@H](CCC(N)=O)NC(=O)[C@@H](NC(=O)[C@H](CCSC)NC(=O)[C@H](CCCCN)NC(=O)[C@H](CO)NC(=O)[C@@H](NC(=O)[C@H](CCSC)NC(=O)[C@H](CC(C)C)NC(=O)[C@H](CC(N)=O)NC(=O)[C@@H](NC(=O)[C@@H](NC(=O)[C@H](CO)NC(=O)[C@H](CC(C)C)NC(=O)[C@H](C)NC(=O)[C@H](CCCNC(=N)N)NC(=O)[C@H](CCC(=O)O)NC(=O)[C@H](Cc1ccc(O)cc1)NC(=O)[C@H](Cc1ccccc1)NC(=O)[C@H](C)NC(=O)[C@H](CC(N)=O)NC(=O)[C@@H](N)CCCCN)[C@@H](C)CC)[C@@H](C)CC)[C@@H](C)O)C(C)C)C(=O)N[C@@H](CC(N)=O)C(=O)N[C@H](C(=O)O)C(C)C	MAPK3 (Homo sapiens, UniProt P27361)	enzyme activity, inhibitor, radiometric	10 µM	inhibition	0%
COc1cc(-c2cncc3c2CN(C)Cc2cc(N4CCNCC4)ccc2-3)cc(OC)c1OC	MAP3K20 (Homo sapiens, UniProt Q9NYL2)	enzyme activity, inhibitor	1 µM	remaining activity	72%
CC(=O)/C=C/C=C(C)/C=C/C1=C(C)CC(O)CC1(C)C (stereo in doubt)	KAI2 (Arabidopsis thaliana, UniProt Q9SZU7)	thermal stability, DSF	100 µM	ΔTm	8.34 °C
COc1ccc2cccc(CCNC(C)=O)c2c1	MTNR1A (Homo sapiens, UniProt P48039)	GTPγS binding, agonist, radiometric	cell membranes	Emax	71%
C1=C/COCc2cc(ccc2OCCN2CCCC2)Nc2nccc(n2)-c2cccc(c2)COC/1	EPHA5 (Homo sapiens, UniProt P54756)	binding	0.1 µM	remaining binding	100%
COc1cc(I)c2[nH]cc(CCNC(C)=O)c2c1	MTNR1B	GTPγS binding, agonist, radiometric	cell membranes	Emax	77%
CCCCC(=O)Nc1ccc(-c2ccc3ncn(CCC)c(=O)c3c2)cn1	TIE1 (Homo sapiens, UniProt P35590)	binding, competition with immobilised ligand	0.5 µM	remaining binding	100%

Some of these lines once more:
Structure (SMILES)	target	test	setting	measurement	value
CC(=O)/C=C/C=C(C)/C=C/C1=C(C)CC(O)CC1(C)C (stereo in doubt)	KAI2 (Arabidopsis thaliana, UniProt Q9SZU7)	thermal stability, DSF	100 µM	ΔTm	8.34 °C
